Measured values of several laboratories.
Parts stem from different laboratories: compare values within a part only. Substitutions count along the parent as printed.

Series 1
Target: Interferon regulatory factor 3, full length, phosphomimetic (IRF3, Homo sapiens, UniProt Q14653, residues 1-427, S386D/S396D/S398D/S402D/T404D/S405D)
Technique: protein-binding microarray
Form: double-stranded DNA, one strand shown
Sample: in vitro
Tested at: 2540 nM top
Notes: 60-bp whole probe
Added: salmon DNA 0.4 mg/ml
Relative to: random background probes
Direction: higher = stronger binding
Shared flanks, not repeated: GCCTAGCAC … GTCTTGATTCGCTTGACGCTGCTG
Residues (chain): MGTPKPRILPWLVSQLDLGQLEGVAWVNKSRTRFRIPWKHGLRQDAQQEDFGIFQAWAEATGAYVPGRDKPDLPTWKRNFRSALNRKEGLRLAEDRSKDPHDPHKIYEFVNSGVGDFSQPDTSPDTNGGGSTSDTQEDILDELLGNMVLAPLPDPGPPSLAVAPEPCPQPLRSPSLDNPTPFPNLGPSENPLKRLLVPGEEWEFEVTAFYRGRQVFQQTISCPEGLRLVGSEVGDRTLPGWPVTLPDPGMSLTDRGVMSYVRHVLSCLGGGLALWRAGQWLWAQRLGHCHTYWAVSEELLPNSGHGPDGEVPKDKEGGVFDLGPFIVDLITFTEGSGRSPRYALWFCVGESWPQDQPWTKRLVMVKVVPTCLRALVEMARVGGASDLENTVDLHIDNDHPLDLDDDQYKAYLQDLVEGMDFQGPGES
Oligonucleotide | fitted relative affinity
TGTTTTTCATTTTTTTTCATGTGCTAG | 2.48 z-score
GACGAGCTCAGTCTCGAGACGTGCTAG | 0.0122 z-score
TCATCATTATTGTGTCAAACTGTGCTA | 0.435 z-score
TGTGGCTTAGCTGTCACCTCGTGCTAG | -0.979 z-score
TTAGATTTCAGACTGGATTGGTGCTAG | 0.665 z-score
GACGGTCTCGGACTGGGGATGTGCTAG | -0.00987 z-score
AAGCTCCTATCTTATGATATAGTGCTA | 1.16 z-score
GACGGACTGGACACAGGGGACGTGCTA | -0.429 z-score
TTATATATCGGGTATCGATTAGTGCTA | 0.671 z-score
GAGGGTTTCCTTTCCCTGACGTGCTAG | 8.7 z-score
TCAGCTCTAGGTTCTCTGACTGTGCTA | -0.466 z-score
GACGAACTGGGGTTTCGAGCCGTGCTA | -0.299 z-score
CACGGTCTCGGACTGGGGACGTGCTAG | -0.126 z-score
GACGGTATCGGTATCGTGACGTGCTAG | 4.14 z-score
TTAGGTCTCGGTATCGATTAGTGCTAG | 1.6 z-score

Series 2
Target: CCNB3, cyclin fold, Cln2 fusion (human)
Technique: yeast growth competition, sequencing
Sample: yeast
Notes: weak parent motif
Relative to: not given
Direction: higher = stronger binding
Starting sequence: SLBP docking peptide (human); ARYKRKLLINDFG; partner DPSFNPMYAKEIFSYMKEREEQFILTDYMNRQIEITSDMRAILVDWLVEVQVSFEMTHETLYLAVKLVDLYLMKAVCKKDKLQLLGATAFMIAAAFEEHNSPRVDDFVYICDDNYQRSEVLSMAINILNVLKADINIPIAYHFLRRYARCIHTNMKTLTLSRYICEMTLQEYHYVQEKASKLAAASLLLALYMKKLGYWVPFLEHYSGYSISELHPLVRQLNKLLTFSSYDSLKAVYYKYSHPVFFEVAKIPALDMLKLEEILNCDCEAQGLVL
Substitution | normalised enrichment score
A1Y | -0.0887
L7E | 0.0693
F12S | -0.161
R5M | 0.258
D11E | 0.211
I9E | 0.25
R5W | -0.356
D11V | 0.241
L7S | -0.281
L7F | 0.444
G13W | 0.631
R5P | 0.521
Y3I | 0.252
R2M | -0.0603
G13T | 0.127
D11H | -0.0929

Series 3
Target: PABPC1L2, full length, GST fusion (mouse, UniProt A0ABA7IW68)
Technique: RNAcompete
Form: RNA
Sample: in vitro
Tested at: 20 nM
Notes: 7-mer, probes averaged, single round
Relative to: mean of 7-mers
Direction: higher = stronger binding
Residues (chain): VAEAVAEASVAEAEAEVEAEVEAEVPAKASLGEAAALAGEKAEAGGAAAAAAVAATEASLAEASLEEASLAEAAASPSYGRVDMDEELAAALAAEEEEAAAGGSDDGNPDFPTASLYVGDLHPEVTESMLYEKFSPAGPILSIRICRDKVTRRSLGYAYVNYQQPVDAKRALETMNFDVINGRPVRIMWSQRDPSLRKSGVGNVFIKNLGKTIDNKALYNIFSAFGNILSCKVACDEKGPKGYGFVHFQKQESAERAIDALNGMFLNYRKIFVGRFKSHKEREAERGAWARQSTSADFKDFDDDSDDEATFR
Oligonucleotide | 7-mer Z-score
CUGUACA | -0.0699
ACGGCUG | 0.095
GCGGGGU | 0.178
CAUGGUG | -0.079
UGGGCCA | 0.0134
AGAGGAG | 0.109
UCCGUAU | -0.393
ACUGUCA | -0.284
GCGAUUG | 0.00436
AGACUCG | -0.416
GUUGGGA | 0.206
AAGACUC | -0.0192
AACGGAA | 0.53
CUGAACG | -0.124
ACACUUC | -0.238
CAAAAUA | 2.92
GCUUCCU | -0.258
UGUAGAC | -0.146
GGACGCC | 0.017
GGAAAUU | 0.0587

Mixed results
Substance | target | assay | system | conditions | how to read | quantity | result
PhoQ, residues 284 288 289 292 302 303 GANMMA | PhoP, residues 12 14 15 18 19 TPLRH (Escherichia coli, UniProt P23836) | Sort-seq, measured: YFP reporter | E. coli | PhoQ-PhoP variant library, added: 10 µM Mg2+ | relative to: high Mg2+ state, higher = stronger signaling | fold induction | 0.972

For quick reference, copied from above (series 2):
Substitution | normalised enrichment score
A1Y | -0.0887
L7E | 0.0693
F12S | -0.161
R5M | 0.258
D11E | 0.211
I9E | 0.25
R5W | -0.356
D11V | 0.241
